{"data": "Measurements gathered from unrelated publications", "note": "Parts stem from different laboratories: compare values within a part only."}
{"data": "Set 1", "target": "Histone acetyltransferase KAT6A, both winged helices, GST fusion (KAT6A, Homo sapiens, UniProt Q92794, residues 1-181)", "method": "protein binding microarray", "form": "double-stranded DNA, one strand shown", "medium": "in vitro", "concentration": "not given", "setting": "8-mer, flanks averaged, mean of 2 arrays, mostly near background", "reference": "not given", "reading": "higher = stronger binding", "Construct (chain)": "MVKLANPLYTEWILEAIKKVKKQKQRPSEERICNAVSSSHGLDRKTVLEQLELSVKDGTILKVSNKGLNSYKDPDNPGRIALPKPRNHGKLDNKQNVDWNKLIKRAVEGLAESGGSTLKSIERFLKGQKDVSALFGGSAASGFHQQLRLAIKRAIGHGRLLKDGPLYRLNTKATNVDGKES"}
{"Oligonucleotide": "AATGTAAA", "E-score": 0.0307}
{"Oligonucleotide": "GAACTCCC", "E-score": -0.0718}
{"Oligonucleotide": "GCCAGGTA", "E-score": -0.0301}
{"Oligonucleotide": "AGCTTGCG", "E-score": 0.175}
{"Oligonucleotide": "TCCGAAAA", "E-score": 0.0246}
{"Oligonucleotide": "TTTGCAAA", "E-score": -0.189}
{"Oligonucleotide": "AGAAGTAC", "E-score": -0.114}
{"Oligonucleotide": "ATACGTGC", "E-score": -0.0533}
{"data": "Set 2", "target": "Replicase polyprotein 1ab, nsp13 helicase (rep, Severe acute respiratory syndrome coronavirus 2, UniProt P0DTD1)", "mode": "inhibitor", "concentration": "20 µM"}
{"Structure (SMILES)": "O=C(NCCO)c1cccc(-c2cc(Nc3ccc(OC(F)(F)F)cc3)ncn2)c1", "inhibition [%]": 0.57}
{"Structure (SMILES)": "CO[C@@H]1[C@H](N(C)C(=O)c2ccccc2)C[C@H]2O[C@]1(C)n1c3ccccc3c3c4c(c5c6ccccc6n2c5c31)C(=O)NC4", "inhibition [%]": 2.55}
{"Structure (SMILES)": "COc1cc2c(cc1C(F)(F)F)N(C(=O)Nc1cc(F)cc(-c3cccnc3)c1)CC2", "inhibition [%]": -3.4}
{"Structure (SMILES)": "Cc1cc(O)cc2c1O[C@](C)(CCC[C@H](C)CCC[C@H](C)CCCC(C)C)CC2", "inhibition [%]": -2.4}
{"Structure (SMILES)": "O=C(CCCCCCC(=O)Nc1cccnc1)NO", "inhibition [%]": 0.03}
{"Structure (SMILES)": "CC(C)(CC(=O)N1CCCC1)NCC(=O)N1C[C@@H](F)C[C@H]1C#N", "inhibition [%]": 2.26}
{"Structure (SMILES)": "Cn1c(=O)c2c(ncn2CC(=O)O)n(C)c1=O", "inhibition [%]": -2.21}
{"Structure (SMILES)": "C[C@]12Cc3c[nH]nc3C[C@@H]1CC[C@@H]1[C@@H]2CC[C@@]2(C)[C@H]1CC[C@]2(C)O", "inhibition [%]": 7.42}
{"Structure (SMILES)": "CCCN(C/C=C/I)C1CCc2cccc(O)c2C1 (stereo not drawn)", "inhibition [%]": -2.77}
{"Structure (SMILES)": "O=C(CCCCCCCn1cc(-c2cccnc2)nn1)Nc1ccccc1-c1ccccc1", "inhibition [%]": -1.1}
{"Structure (SMILES)": "Oc1ccc(-c2nc3cc(O)cc(Br)c3o2)cc1", "inhibition [%]": 8.45}
{"Structure (SMILES)": "CCN1CCN(c2ccc(C(C)(C)NC(=O)c3cc4[nH]c5ccccc5c(=O)c4cc3F)cn2)CC1", "inhibition [%]": -4.08}
{"Structure (SMILES)": "CCNC(=O)[C@H]1O[C@@H](n2cnc3c(N)nc(NCCc4ccc(CCC(=O)O)cc4)nc32)[C@H](O)[C@@H]1O", "inhibition [%]": 1.57}
{"Structure (SMILES)": "CCCCCC(C)N (stereo not drawn)", "inhibition [%]": 4.2}
{"Structure (SMILES)": "Cc1ncc([N+](=O)[O-])n1CC(O)CN1CCOCC1 (stereo not drawn)", "inhibition [%]": 9.56}
{"Structure (SMILES)": "CC(C)(C)C(=O)Oc1ccc(S(=O)(=O)Nc2ccccc2C(=O)NCC(=O)O)cc1", "inhibition [%]": -7.19}
{"Structure (SMILES)": "CC(/C=C/C(=O)NO)=C\\[C@@H](C)C(=O)c1ccc(N(C)C)cc1", "inhibition [%]": 14.2}
{"Structure (SMILES)": "O=C(CNC(=O)c1cccc(C(F)(F)F)c1)N[C@@H]1CCN(Cc2ccc(Cl)cc2)C1", "inhibition [%]": 4.73}
{"Structure (SMILES)": "CCCc1c(OCC(O)COc2ccc3c(=O)cc(C(=O)O)oc3c2CCC)ccc(C(C)=O)c1O (stereo not drawn)", "inhibition [%]": 18.4}
{"Structure (SMILES)": "CCCCC(=O)N(Cc1ccc(-c2ccccc2-c2nnn[nH]2)cc1)[C@H](C(=O)O)C(C)C", "inhibition [%]": 9.06}
{"Structure (SMILES)": "Cc1cc(NC(=O)C2=C(O)c3ccccc3S(=O)(=O)N2C)no1", "inhibition [%]": 3.22}
{"Structure (SMILES)": "CC(C)c1cc(C(C)C)c(-c2csc(N(CCN(C)C)Cc3cccnc3)n2)c(C(C)C)c1", "inhibition [%]": 1.45}
{"Structure (SMILES)": "CC[N+](C)(C)c1cccc(O)c1", "inhibition [%]": 4.97}
{"Structure (SMILES)": "O=S(=O)(N[C@H](CO)C(C(F)(F)F)C(F)(F)F)c1ccc(Cl)s1", "inhibition [%]": 3.71}
{"Structure (SMILES)": "CCc1cccc(CC)c1NC1=NCCN1", "inhibition [%]": 0.49}
{"data": "Set 3", "target": "RNA binding protein fox-1 homolog 2, RRM domain, GST-SBP tag (RBFOX2, Homo sapiens, UniProt O43251-10, residues 100-194)", "method": "RNA Bind-n-Seq", "form": "RNA", "medium": "in vitro", "concentration": "365 nM", "setting": "natural RNA segment, single round, ends assumed", "reference": "no-protein control", "reading": "higher = stronger binding", "shared flanks, not repeated": "GGGAGUUCUACAGUCCGACGAUC … UGGAAUUCUCGGGUGCCAA", "Target sequence (chain)": "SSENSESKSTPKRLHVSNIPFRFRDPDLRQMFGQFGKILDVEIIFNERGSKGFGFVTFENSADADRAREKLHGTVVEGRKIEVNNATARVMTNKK"}
{"Oligonucleotide": "AAUAAUGACAAUUUAUGAAUUUGUGUUUCAAAUUGAUAAAAUAUUUAGGUACAAAUAACAAGACUAAUAAUAUUUUCUUAUUUAAAAAAAGCAUGGGAAGAUUUUUAUUU", "RBNS enrichment (R)": 1.07}
{"Oligonucleotide": "GGAGUGUGUAAGGUAUAUGUUUUAUAAUUCAUAACCAUAGCCUCGAUCAUCAAGAAAUACUUUCGAAAUUUCAUUUUCCUUCAGAAUAUCUUAAGAGUGCUAAAUUUUUA", "RBNS enrichment (R)": 0.359}
{"Oligonucleotide": "GAAGGGUCGUGGUCCAGAGCUCCUUGGGUCCCAUGAAACUGCCCUGUUCUCUGUGGCUGUGGACAGUCGUUGCCAGCUGCAUCUGUUGCCCUCACGGGGGAGUGUUCCUG", "RBNS enrichment (R)": 0.243}
{"Oligonucleotide": "ACAACUCUUCCACCCCAAACAAAAGGGCUCAGGCUACACACGACCAUGAUUUAUGUUUUCAGGGGAUGCCCAUUUGUCCCAAGCUUAUCCUGUAAUUCUAGAAUUACCUG", "RBNS enrichment (R)": 0.368}
{"Oligonucleotide": "CAGUGUUUGUGGGAUAUCCCCAAAGGAAAGCUGUGUUCUAAUUUUAUCAUUUCCAUCUGUCUGGUUAUGUCAAGUUAACUCAGAAAAAGAAGAGACACUGACCAACCCUG", "RBNS enrichment (R)": 0.372}
{"data": "Set 4", "cell line": "HEK-293T", "effect on": "pseudovirus infection", "method": "FDA-approved drug library screen", "organism": "VSV pseudotyped with SARS-CoV-2 spike", "concentration": "10 µM", "time": "16 h", "reference": "vehicle-treated"}
{"SMILES": "O=C1O[C@H](CO)[C@@H](O)[C@H](O)[C@H]1O", "GFP-positive cells": "83.5%"}
{"SMILES": "COC(=O)Nc1nc2ccc(C(=O)c3ccccc3)cc2[nH]1", "GFP-positive cells": "17.4%"}
{"SMILES": "CC1(C)NC(=O)N(c2ccc([N+](=O)[O-])c(C(F)(F)F)c2)C1=O", "GFP-positive cells": "121%"}
{"SMILES": "CCN(CC)C(=O)Nc1ccc(OCC(O)CNC(C)(C)C)c(C(C)=O)c1 (stereo not drawn)", "GFP-positive cells": "82.2%"}
{"data": "Set 5", "target": "Sal-like protein 4, full length isoform B (SALL4, Homo sapiens, UniProt Q9UJQ4-2, residues 1-616)", "method": "universal PBM", "form": "double-stranded DNA, one strand shown", "medium": "in vitro", "concentration": "not given", "setting": "8-mer, flanks averaged, mean of replicates", "reading": "higher = stronger binding", "Target sequence (chain)": "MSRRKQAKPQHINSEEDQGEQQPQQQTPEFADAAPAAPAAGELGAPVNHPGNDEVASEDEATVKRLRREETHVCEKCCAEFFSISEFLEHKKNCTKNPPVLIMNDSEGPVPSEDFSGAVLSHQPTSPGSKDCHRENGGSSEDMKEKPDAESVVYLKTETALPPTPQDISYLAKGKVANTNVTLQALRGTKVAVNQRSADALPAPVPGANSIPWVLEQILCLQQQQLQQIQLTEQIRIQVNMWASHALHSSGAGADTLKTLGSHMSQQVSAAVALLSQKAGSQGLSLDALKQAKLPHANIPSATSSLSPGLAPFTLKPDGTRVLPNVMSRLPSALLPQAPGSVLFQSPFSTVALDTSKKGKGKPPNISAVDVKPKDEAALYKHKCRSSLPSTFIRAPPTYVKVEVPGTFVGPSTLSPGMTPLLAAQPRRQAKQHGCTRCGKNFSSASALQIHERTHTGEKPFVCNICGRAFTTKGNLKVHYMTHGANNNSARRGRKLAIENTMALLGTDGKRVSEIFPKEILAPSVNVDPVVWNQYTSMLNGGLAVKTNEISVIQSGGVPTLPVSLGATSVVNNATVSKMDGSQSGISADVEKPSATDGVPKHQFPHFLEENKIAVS"}
{"Oligonucleotide": "CGGATGGC", "E-score": -0.151}
{"Oligonucleotide": "CCTTTTGC", "E-score": -0.157}
{"Oligonucleotide": "CGGATGAG", "E-score": -0.0964}
{"Oligonucleotide": "ATAATAGG", "E-score": 0.342}
{"Oligonucleotide": "GCCGATCC", "E-score": -0.19}
{"Oligonucleotide": "CACGCGCA", "E-score": -0.195}
{"Oligonucleotide": "CAGGAAAC", "E-score": -0.0609}
{"Oligonucleotide": "ATCATACG", "E-score": 0.253}
{"data": "Set 6", "target": "Replicase polyprotein 1ab, 3C-like proteinase (rep, Middle East respiratory syndrome-related coronavirus, UniProt K9N7C7)", "effect on": "enzyme activity", "mode": "inhibitor", "concentration": "10 µM"}
{"SMILES": "C/N=c1/nc(-c2ccccc2)n(-c2ccccc2)s1", "inhibition [%]": 44}
{"SMILES": "COCCCOc1ccnc(C[S+]([O-])c2nc3ccccc3[nH]2)c1C (stereo not drawn)", "inhibition [%]": 46}
{"SMILES": "CC[C@H](CO)Nc1nc(NCc2ccc(-c3ccccn3)cc2)c2ncn(C(C)C)c2n1", "inhibition [%]": 4}
{"SMILES": "Cc1ccc(-n2sc(=O)n(Cc3ccc(F)cc3)c2=O)cc1", "inhibition [%]": 35}
{"SMILES": "Nc1ccc(S(=O)(=O)Nc2ncccn2)cc1", "inhibition [%]": 22}
{"SMILES": "O=C1C=CC(=O)C2=C1C1c3ccccc3C2c2ccccc21", "inhibition [%]": 45}
{"SMILES": "CCCCCCCCCCCCCCCC[n+]1ccn(Cc2ccccc2)c1C", "inhibition [%]": 12}
{"note": "For quick reference, copied from above (set 6):"}
{"SMILES": "C/N=c1/nc(-c2ccccc2)n(-c2ccccc2)s1", "inhibition [%]": 44}
{"SMILES": "COCCCOc1ccnc(C[S+]([O-])c2nc3ccccc3[nH]2)c1C (stereo not drawn)", "inhibition [%]": 46}
{"SMILES": "CCCCCCCCCCCCCCCC[n+]1ccn(Cc2ccccc2)c1C", "inhibition [%]": 12}
{"SMILES": "Cc1ccc(-n2sc(=O)n(Cc3ccc(F)cc3)c2=O)cc1", "inhibition [%]": 35}
